Results from different studies.
Several values in a cell are separate wells, animals, samples, runs or records. ± marks the error that the study gave.
BCHE: Cholinesterase (BCHE, Equus caballus, UniProt P81908)
UniProt P81908, sequence (whole entry, looked up): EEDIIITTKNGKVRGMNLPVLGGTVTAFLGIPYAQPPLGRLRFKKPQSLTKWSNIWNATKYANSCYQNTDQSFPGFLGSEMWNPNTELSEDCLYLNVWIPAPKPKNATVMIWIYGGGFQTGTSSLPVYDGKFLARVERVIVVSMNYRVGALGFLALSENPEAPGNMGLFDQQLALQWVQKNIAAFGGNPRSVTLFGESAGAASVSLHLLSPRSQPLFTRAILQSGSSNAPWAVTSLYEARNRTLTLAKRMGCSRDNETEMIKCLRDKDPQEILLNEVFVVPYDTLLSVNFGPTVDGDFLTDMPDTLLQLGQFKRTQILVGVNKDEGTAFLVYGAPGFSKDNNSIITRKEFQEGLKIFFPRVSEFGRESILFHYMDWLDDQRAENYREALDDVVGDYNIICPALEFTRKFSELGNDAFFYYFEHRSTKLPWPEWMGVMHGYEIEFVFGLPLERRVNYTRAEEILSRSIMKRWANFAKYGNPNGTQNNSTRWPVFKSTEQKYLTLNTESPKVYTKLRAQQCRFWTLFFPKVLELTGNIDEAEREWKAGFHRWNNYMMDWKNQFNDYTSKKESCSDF
HTR2C: 5-hydroxytryptamine receptor 2C (HTR2C, Homo sapiens, UniProt P28335)
UniProt P28335, sequence (whole entry, looked up): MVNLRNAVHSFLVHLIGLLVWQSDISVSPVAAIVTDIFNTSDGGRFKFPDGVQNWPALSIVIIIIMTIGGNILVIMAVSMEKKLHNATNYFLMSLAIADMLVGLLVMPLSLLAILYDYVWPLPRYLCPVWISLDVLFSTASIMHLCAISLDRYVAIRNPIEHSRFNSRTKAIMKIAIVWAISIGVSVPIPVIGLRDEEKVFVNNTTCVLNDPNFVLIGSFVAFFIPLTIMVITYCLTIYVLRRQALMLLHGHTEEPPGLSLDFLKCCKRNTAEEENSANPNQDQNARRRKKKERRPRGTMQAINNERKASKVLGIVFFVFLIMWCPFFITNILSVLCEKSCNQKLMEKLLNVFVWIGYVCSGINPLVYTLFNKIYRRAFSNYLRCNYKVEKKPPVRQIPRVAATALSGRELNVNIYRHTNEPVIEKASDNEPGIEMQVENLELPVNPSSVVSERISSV
UniProt P37231, sequence (whole entry, looked up): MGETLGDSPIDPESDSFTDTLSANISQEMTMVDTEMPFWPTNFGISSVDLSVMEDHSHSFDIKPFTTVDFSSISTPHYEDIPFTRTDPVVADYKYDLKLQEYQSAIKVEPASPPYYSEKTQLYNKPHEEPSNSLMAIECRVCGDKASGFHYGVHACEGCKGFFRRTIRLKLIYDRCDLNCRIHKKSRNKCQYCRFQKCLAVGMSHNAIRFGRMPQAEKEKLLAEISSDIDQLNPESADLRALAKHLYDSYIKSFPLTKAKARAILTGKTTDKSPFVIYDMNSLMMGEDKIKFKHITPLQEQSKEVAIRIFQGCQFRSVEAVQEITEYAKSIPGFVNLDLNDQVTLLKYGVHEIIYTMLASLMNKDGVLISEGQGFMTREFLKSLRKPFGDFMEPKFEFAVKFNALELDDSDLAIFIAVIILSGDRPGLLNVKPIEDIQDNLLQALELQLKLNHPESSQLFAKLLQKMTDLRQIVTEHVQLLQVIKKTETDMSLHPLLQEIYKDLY
UniProt P49840, sequence (whole entry, looked up): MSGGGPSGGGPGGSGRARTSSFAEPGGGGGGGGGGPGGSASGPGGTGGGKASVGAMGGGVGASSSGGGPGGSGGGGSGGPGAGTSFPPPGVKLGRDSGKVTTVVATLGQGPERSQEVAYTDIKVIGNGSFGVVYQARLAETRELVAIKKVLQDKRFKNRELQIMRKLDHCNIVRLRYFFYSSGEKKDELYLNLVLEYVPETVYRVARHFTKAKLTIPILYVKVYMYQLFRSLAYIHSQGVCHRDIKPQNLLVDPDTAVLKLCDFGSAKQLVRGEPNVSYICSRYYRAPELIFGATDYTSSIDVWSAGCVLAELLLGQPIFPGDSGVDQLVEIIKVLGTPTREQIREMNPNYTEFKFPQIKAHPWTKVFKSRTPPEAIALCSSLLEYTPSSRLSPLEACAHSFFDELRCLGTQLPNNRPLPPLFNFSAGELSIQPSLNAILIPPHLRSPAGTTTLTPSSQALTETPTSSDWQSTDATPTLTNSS
UniProt P46663, sequence (whole entry, looked up): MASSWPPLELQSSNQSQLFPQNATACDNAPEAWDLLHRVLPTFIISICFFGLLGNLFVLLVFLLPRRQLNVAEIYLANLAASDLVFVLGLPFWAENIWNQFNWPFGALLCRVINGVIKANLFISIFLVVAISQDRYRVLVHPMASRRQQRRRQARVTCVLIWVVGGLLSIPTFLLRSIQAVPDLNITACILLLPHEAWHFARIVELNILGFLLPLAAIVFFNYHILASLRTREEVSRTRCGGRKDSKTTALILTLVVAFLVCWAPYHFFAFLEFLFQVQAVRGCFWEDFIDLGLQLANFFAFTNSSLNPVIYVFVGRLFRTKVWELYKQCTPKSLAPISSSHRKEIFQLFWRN
UniProt P25103, sequence (whole entry, looked up): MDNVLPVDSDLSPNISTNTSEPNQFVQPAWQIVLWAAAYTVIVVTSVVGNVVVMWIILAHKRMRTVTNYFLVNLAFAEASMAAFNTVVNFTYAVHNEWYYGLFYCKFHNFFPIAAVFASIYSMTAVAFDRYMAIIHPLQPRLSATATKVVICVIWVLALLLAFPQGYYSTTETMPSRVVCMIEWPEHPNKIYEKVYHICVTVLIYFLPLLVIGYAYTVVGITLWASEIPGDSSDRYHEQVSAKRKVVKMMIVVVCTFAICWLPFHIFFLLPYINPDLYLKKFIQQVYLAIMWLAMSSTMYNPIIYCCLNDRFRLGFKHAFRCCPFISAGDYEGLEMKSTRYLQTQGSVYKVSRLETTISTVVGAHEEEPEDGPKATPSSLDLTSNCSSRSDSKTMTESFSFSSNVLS
UniProt P28336, sequence (whole entry, looked up): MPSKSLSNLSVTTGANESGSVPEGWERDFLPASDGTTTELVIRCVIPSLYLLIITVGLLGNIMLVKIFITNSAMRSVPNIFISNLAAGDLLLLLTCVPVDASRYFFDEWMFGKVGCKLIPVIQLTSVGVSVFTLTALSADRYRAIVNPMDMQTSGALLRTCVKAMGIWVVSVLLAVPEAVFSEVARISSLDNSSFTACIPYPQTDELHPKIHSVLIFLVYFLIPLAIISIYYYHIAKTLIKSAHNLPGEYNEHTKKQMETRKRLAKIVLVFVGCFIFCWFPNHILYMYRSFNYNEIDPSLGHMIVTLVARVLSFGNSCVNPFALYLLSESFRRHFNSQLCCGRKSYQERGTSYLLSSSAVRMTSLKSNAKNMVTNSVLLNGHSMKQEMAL
UniProt Q00535, sequence (whole entry, looked up): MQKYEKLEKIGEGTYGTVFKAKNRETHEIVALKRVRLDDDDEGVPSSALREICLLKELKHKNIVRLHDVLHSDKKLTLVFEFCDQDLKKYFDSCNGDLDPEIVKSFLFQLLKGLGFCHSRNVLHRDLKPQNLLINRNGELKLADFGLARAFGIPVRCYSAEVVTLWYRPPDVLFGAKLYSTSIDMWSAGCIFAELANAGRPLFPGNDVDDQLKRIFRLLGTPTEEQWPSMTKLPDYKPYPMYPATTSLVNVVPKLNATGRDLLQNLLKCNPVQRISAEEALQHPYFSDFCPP
UniProt Q9HCP0, sequence (whole entry, looked up): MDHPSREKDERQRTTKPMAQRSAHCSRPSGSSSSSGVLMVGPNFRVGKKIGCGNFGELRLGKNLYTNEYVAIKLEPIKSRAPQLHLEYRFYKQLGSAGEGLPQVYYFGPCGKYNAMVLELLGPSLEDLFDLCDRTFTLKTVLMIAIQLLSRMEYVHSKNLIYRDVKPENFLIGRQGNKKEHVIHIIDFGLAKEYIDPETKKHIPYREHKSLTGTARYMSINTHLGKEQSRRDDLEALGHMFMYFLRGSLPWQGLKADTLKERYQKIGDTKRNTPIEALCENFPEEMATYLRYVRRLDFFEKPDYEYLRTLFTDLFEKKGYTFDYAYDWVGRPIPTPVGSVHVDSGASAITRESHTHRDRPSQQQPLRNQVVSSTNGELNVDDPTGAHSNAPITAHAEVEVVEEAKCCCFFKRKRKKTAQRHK
UniProt P30872, sequence (whole entry, looked up): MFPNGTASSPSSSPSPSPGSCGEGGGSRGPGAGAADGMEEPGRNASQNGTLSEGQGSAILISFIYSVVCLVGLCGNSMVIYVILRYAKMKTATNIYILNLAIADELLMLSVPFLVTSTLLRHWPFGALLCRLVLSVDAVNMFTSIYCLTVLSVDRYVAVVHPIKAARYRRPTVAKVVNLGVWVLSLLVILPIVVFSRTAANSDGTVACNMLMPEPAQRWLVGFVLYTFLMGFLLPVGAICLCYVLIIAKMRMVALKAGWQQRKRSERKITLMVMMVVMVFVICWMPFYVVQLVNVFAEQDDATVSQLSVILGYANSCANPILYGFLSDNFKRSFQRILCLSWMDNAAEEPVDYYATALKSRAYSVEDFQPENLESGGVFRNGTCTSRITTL
UniProt P45983, sequence (whole entry, looked up): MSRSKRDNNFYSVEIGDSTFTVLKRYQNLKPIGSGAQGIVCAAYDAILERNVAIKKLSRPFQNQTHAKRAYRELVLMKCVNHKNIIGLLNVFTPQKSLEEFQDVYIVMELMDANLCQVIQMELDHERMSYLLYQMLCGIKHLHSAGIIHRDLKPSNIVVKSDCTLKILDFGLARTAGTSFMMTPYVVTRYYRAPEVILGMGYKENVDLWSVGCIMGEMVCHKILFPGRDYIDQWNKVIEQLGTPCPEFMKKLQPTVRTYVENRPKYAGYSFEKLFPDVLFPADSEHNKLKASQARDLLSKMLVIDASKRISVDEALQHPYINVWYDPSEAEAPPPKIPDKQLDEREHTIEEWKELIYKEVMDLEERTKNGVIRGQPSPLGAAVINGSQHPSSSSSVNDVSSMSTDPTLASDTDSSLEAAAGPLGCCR

C1CSCN1  inhibition (BCHE; enzyme activity, inhibitor, Ellman; 20 µM): 38.1%
CCCCCCCCCCCCCCCCCC(=O)NC[C@H]1CC[C@H](C(=O)N[C@@H](CCC(=O)NCCCOCCOCCOCCCNC(=O)COCC(=O)N[C@@H](Cc2ccc(O)cc2)C(=O)NC(C)(Cc2ccccc2)C(=O)N[C@@H](CC(C)C)C(=O)N[C@@H](CCCC)C(=O)N[C@@H](CCCNC(=N)N)C(=O)N2CCC[C@H]2C(=O)N[C@@H](CCCNC(=N)NC)C(=O)N[C@@H](CC(N)=O)C(N)=O)C(=O)O)CC1 (stereo partly drawn)  inhibition (Neuromedin-B receptor (NMBR, Homo sapiens, UniProt P28336); antagonist, DiscoverX GPCR panel; 1 µM): 53%
CC(C)[C@@H](Nc1nc(Cl)nc2c1ncn2[C@H]1[C@H](O)[C@H](O)[C@]2(CF)C[C@H]12)C1CC1  inhibition (HTR2C; ligand displacement, radioligand; 10 µM): 45%
CN(/N=C/c1ccccc1C(=O)O)c1nc(-c2ccccc2Cl)cs1  inhibition (Cyclin-dependent kinase 1, with cyclin A2 (CDK1, Homo sapiens, UniProt P06493); enzyme activity, inhibitor; 1 µM): -8.43%
Cc1ccc(-n2cc(CCS(=O)(=O)F)nn2)cc1  inhibition (BCHE; enzyme activity, inhibitor, Ellman's method; horse serum BuChE; 20 µM): 32.5 ± 2.1%
COc1ccc(F)cc1S(=O)(=O)Nc1cnc2c(c1)C(=O)NCCO2  inhibition (NMDA receptor Agonism site; radioligand binding; 10 µM): 38%
NC12CC3CC(CC(C3)C1)C2  inhibition (Procathepsin L (CTSL, Homo sapiens, UniProt P07711); enzyme activity, inhibitor; 100 µM, with preincubation): 3%
CS(C)(=O)=Nc1ccc(-c2ccc(-c3nc4cc(O[C@@H]5CO[C@H]6[C@@H]5OC[C@H]6O)[nH]c4cc3F)cc2)cc1  inhibition (Somatostatin receptor type 1 (SSTR1, Homo sapiens, UniProt P30872); calcium signal, antagonist; 10 µM): -2%
CN[C@@H]1[C@H](O)[C@H](NC)[C@H]2O[C@]3(O)[C@H](O[C@@H]2[C@H]1O)O[C@H](C)C[C@H]3NC(=O)Cc1cc(Cl)ccn1  inhibition (Substance-P receptor (TACR1, Homo sapiens, UniProt P25103); ligand displacement, radioligand; 10 µM): 7%
COc1ccccc1N1CCN(CCCCN2CCCc3ccccc3C2=O)CC1  inhibition (HTR2C; radioligand binding; concentration not given, added: [3H]mesulergine): 77.1%
Cc1cc(C)cc(-n2cc(CCS(=O)(=O)F)nn2)c1  inhibition (BCHE; enzyme activity, inhibitor, Ellman's method; horse serum BuChE; 20 µM): 32.4 ± 1.4%
CCOC(=O)[C@](CC)(CCCSCCOCCOCCNC(=O)c1ccc(-c2c3ccc(=N)c(S(=O)(=O)O)c-3oc3c(S(=O)(=O)O)c(N)ccc23)c(C(=O)O)c1)NC(=O)c1ccc(C2CC2)c(Cc2ccc(F)cc2)n1  inhibition (Peroxisome proliferator-activated receptor gamma (PPARG, Homo sapiens, UniProt P37231); ligand displacement, radioligand; 10 µM): 29%
CC(=O)NC[C@@H]1[C@@H](O)C[C@H]2[C@H](O)C[C@@H](CO)N12  inhibition (Spodoptera litura β-N-acetylglucosaminidase; crude enzyme; 1.71 µM, run 2, added: p-nitrophenyl GlcNAc): 81.4%
CN[C@@H]1[C@H](O)[C@H](NC)[C@H]2O[C@]3(O)[C@H](O[C@@H]2[C@H]1O)O[C@H](C)C[C@H]3NC(=O)Cc1ccc(Cl)cn1  inhibition (B1 bradykinin receptor (BDKRB1, Homo sapiens, UniProt P46663); ligand displacement, radioligand; 10 µM): 0%
CN(C)[C@H]1C[C@@]23CC[C@@]4(O2)C(=CC[C@]2(C)[C@@H](c5ccc6ccncc6c5)CC[C@H]24)C=C3[C@@H](O)[C@@H]1O  inhibition (Glycogen synthase kinase-3 alpha (GSK3A, Homo sapiens, UniProt P49840); ATP probe labelling, inhibitor, KiNativ profiling; 1 µM): 1.7%
CC(C)[C@H]1NC(=O)C[C@H]2/C=C/CCSSC[C@@H](NC1=O)C(=O)N[C@H](Cc1cccc3ccccc13)C(=O)NCC(=O)O2  inhibition (Cyclin-dependent kinase 5, with p25 (CDK5, Homo sapiens, UniProt Q00535); enzyme activity, inhibitor; 10 µM): -2.5%
N#Cc1ccc(N2N=C3c4ccc(C(=O)O)cc4CCC3C2C2CCCC2)cc1Cl (stereo not drawn)  inhibition (Histone-lysine N-methyltransferase SETD2 (SETD2, Homo sapiens, UniProt Q9BYW2); enzyme activity, inhibitor; 10 µM): 16%
N[C@H](C(=O)N1CCCC1)C1CCN(c2nccc3c(-c4ncc(Cl)cc4Cl)cccc23)CC1  inhibition (L-type calcium channel dihydropyridine site; binding, radioligand binding; 10 µM): 4%
O=C(O)c1ccccc1/C=N/Nc1nc(-c2ccccc2Cl)cs1  inhibition (LYN B kinase; kinase activity, inhibitor; 1 µM): 15.4% and 12.2%
C[C@H](NCc1ccc(-c2ccc(C(F)(F)F)cc2)cc1)C(N)=O  inhibition (Mitogen-activated protein kinase 8 (MAPK8, Homo sapiens, UniProt P45983); cell-free assay, competition with immobilised ligand; 1 µM): 14%
O=C(CN1CN(c2ccccc2)C2(CCN(C(=O)c3cnc4[nH]ncc4c3)CC2)C1=O)NCC(F)(F)F  inhibition (Casein kinase I isoform gamma-1 (CSNK1G1, Homo sapiens, UniProt Q9HCP0); inhibitor; concentration not given): < 50%

Some of these lines once more:
N#Cc1ccc(N2N=C3c4ccc(C(=O)O)cc4CCC3C2C2CCCC2)cc1Cl (stereo not drawn)  inhibition (Histone-lysine N-methyltransferase SETD2 (SETD2, Homo sapiens, UniProt Q9BYW2); enzyme activity, inhibitor; 10 µM): 16%
N[C@H](C(=O)N1CCCC1)C1CCN(c2nccc3c(-c4ncc(Cl)cc4Cl)cccc23)CC1  inhibition (L-type calcium channel dihydropyridine site; binding, radioligand binding; 10 µM): 4%
